Measurements collected from several papers.
“And” joins repeats or separate records; there may be more than shown. ± marks the error that the study gave.

`CC[C@H](C)[C@H](NC(=O)C[C@H](NC(=O)CN1CCN2CCN(CC1)CC(=O)[O][Al]([18F])[O]C(=O)C2)C(=O)O)C(=O)N[C@H]1CCc2cccc3c2N(C1=O)[C@H](C(=O)NCc1cn[nH]n1)C3`: body weight “no effect” (Kunming mice; intravenous, 18.5 MBq, 925 MBq/kg, 18 days; relative to: saline).
`CC(=O)N1CCN(C(=O)c2ccc(Nc3nccc(-c4ccc(Cl)cc4)n3)cc2)CC1` gave a body weight of 26.2 g and 25.3 g and 24.3 g (NSG mice; dose not given, day 5).
`Cc1cnc2nc1Nc1cccc(c1)COC/C=C/COCc1cc(ccc1OCCN1CCOCC1)N2` gave a body weight of 19.4 g and 19 g and 20.9 g and 17.6 g and 18.3 g (BALB/c mice, rhEPO-induced polycythemia; 75 mg/kg, day 5).
For `COc1ccc(CNc2nc([C@H]3CC[C@H](C(=O)O)CC3)nc3sc4ccccc4c23)cc1Cl`, the body weight was 21.9 g and 21.1 g and 19.6 g (NSG mice; dose not given, day 5).
`CCCC[C@@H](CSS(=O)(=O)O)NCCC` — result for “body weight decrease”: 6.5% (Swiss Webster mice, Schistosoma mansoni infected; 100 mg/kg; relative to: vehicle control).
With `O=C1NC(=O)/C(=C/c2ccc3ncnc(N4CCC(F)CC4)c3n2)S1` the body weight was 22.7 g and 26.8 g and 22.6 g and 25 g (NSG mice; dose not given, day 2).
`CC(C)(C)NCC(SS(=O)(=O)O)c1ccccc1` (stereo not shown) — result for “body weight decrease”: -4.74% (Swiss Webster mice, Schistosoma mansoni-infected; 400 mg/kg single dose on day 42 post-infection, perfusion day 56 post-infection; relative to: vehicle).
With `O=C(OCc1cccc(O)c1O)c1ccc(O)c(CO)c1` the body weight was 33.3 ± 1.3 g (C57BL/6J mice, wild type; intraperitoneal, 2.5 mg/kg/day, day 14, saline infusion control).
For `CC(C)NCC(SS(=O)(=O)O)c1ccccc1` (stereo not shown), “body weight decrease” read 5.55% (Swiss Webster mice, Schistosoma mansoni infected; 100 mg/kg; relative to: vehicle control).
With `COc1cc(N2CCN(C(=O)C3CCCN3)CC2)ccc1Nc1ncc(Cl)c(Nc2ccccc2P(C)(C)=O)n1` (stereo not shown) the body weight was 25.7 g and 28.5 g and 23.9 g and 25.6 g and 22.7 g (nude mice, NCI-H3122 xenograft; intraperitoneal, 10 mg/kg every other day, day 15).

Repeated from above:
`CC(C)(C)NCC(SS(=O)(=O)O)c1ccccc1` (stereo not shown) — result for “body weight decrease”: -4.74% (Swiss Webster mice, Schistosoma mansoni-infected; 400 mg/kg single dose on day 42 post-infection, perfusion day 56 post-infection; relative to: vehicle).
With `O=C(OCc1cccc(O)c1O)c1ccc(O)c(CO)c1` the body weight was 33.3 ± 1.3 g (C57BL/6J mice, wild type; intraperitoneal, 2.5 mg/kg/day, day 14, saline infusion control).
